Published values gathered from unrelated publications.
Parts stem from different laboratories: compare values within a part only.

Sample 1 — method: RNA Bind-n-Seq; molecule type: RNA; sample: in vitro; tested at: 365 nM; baseline: no-protein control; direction: higher = stronger binding
Target: RNA binding protein fox-1 homolog 2, RRM domain, GST-SBP tag (RBFOX2, Homo sapiens, UniProt O43251-10, residues 100-194)
Setting: natural RNA segment, single round, ends assumed
Residues (chain): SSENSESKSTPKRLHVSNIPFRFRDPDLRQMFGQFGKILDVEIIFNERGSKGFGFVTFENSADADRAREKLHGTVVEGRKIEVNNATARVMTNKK
Under “RBNS enrichment (R)”, `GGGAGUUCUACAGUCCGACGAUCGGUGCCUCUGGACUGCAGGAGAAAGGCGUCGUGCCAGGCAGUAUCCUGUGGAGGGAGGAGGGUGUACGUUCGUUUACUAUGGAUAGUUUUUCCUUUGAAUUAAAUUGUAGUGGAAUUCUCGGGUGCCAA` is recorded as 0.659.
For `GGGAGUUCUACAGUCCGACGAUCACGACUCCAGUGUCAGAGCAGGGCCACCUGGGGUGUGUAGGAUGGGUACAGGGUUCCCAGCCUCAGGUUCCUGGAGGCCAAUGUCCAGCAAGAUCAUGCCUUCUCUGUCUUGGAAUUCUCGGGUGCCAA`, “RBNS enrichment (R)” read 0.359.
For `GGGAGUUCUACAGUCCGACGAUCGCCUAACCACACAGCCACCUGCCCUAAGUGACAUUGUGUUUUUAGGUGUCACCGUCUUAGCCCUUUGUUUUCCUUACUAGAGUAUCUUUCCCGCACCCCUAGGUUUGUAUUGGAAUUCUCGGGUGCCAA`, “RBNS enrichment (R)” read 0.918.
Under “RBNS enrichment (R)”, `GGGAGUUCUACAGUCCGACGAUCCAAGGGAAGGCUUGGUCUGCGUUUUCUGUGUUUGGAUUAUUUUUAUACUUUGCUGAUCUUUAAGCUAUCCAUGGGGGAAAUUUUAUACCAACGAGUUAAUAAUUCUCAUUUGGAAUUCUCGGGUGCCAA` is recorded as 0.97.
For `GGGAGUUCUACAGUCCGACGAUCUUAAGCUGCUAAUUGUUGAGAGAGAUUUAAAUUUAUGUUCUGUCUGGUCGCUGCAGAUUCUCAGCAGCACUUUUACUGUAUAUAGAAAUUGAAAUAAAGACCUCAGCUAUUGGAAUUCUCGGGUGCCAA`, “RBNS enrichment (R)” read 0.336.
`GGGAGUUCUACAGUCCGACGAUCCAGGGUUUGGGCCUAAUGGUUUUUACUAAAUUACUCCCCUCCUGCUCUCCGAGAAAGGGGAGCCAGAGCCGCUCACUGUGGUUCUGUUCCGACCUUGAAGGGGCGGUAUUUGGAAUUCUCGGGUGCCAA` — result for “RBNS enrichment (R)”: 0.257.
`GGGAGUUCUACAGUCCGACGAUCGGUUCACUUGAUUGUCUGUAUUUCUGUGUGGUUGUAGCAAGGACUCAGCCUCAUGUAGCACGAAUAGGGGUGUGGUUCAUGGCGUGUUGACCCAGCAGAGCACUCCCUCCUGGAAUUCUCGGGUGCCAA`: “RBNS enrichment (R)” 3.95.
Under “RBNS enrichment (R)”, `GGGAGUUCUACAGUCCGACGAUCUUCCUCACCUGCCCCUGCCCUACCUUACACCCCCAGCUUGACUUCUUUCCAGUCCACGUGUGUAUAUAAUGAUAUCUAUAUUUUUGCCCAGGUCUGGGUAUUGCUCCUGCUGGAAUUCUCGGGUGCCAA` is recorded as 0.838.
For `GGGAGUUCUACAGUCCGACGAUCAAAAUGGAACUUUAGGCCAACCCCCAGCCUUCUGUUGCUAGGGUUGGUCUCCUACAGACACAGUGAUCAAGCUGGAUGACUCCUGCUCUUUGGUGCUUUCAACUCAUUGGUGGAAUUCUCGGGUGCCAA`, “RBNS enrichment (R)” read 0.385.
`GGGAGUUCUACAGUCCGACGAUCCUUUAUCUCAUAAUCUUCCAGUACAUAUGCUCUCAGUUGGGAUAGCAGUUCAUUUCCAUUAGGCAGACGUAUAAACUAAGGAAUGUUAGUCUGCAGUAUUCAUUUUAAAAUGGAAUUCUCGGGUGCCAA`: “RBNS enrichment (R)” 0.83.
`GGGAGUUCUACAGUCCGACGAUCCUACCUUGAAAUCCAGAAAAUCCAAUCCUUAAUCAACUGCUUGAUGAAGGAGGCAAAACAAAGGCAGCAGGAGAUAAUGUGAUUGGUACACAAAAGCUAAAGCAGUGGCUUGGAAUUCUCGGGUGCCAA` — result for “RBNS enrichment (R)”: 0.376.
`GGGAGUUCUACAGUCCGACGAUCACCUUUUUGUUAGUGUUUAAGGGAGCCCCUGAAGAGACUCAACAGAACAGUGAGAGGAGAGAGAGAAAAGCUGGCAGGGUUGUGACUGGCAUGCAAAUCCAUAUUCUAGCUGGAAUUCUCGGGUGCCAA`: “RBNS enrichment (R)” 1.06.

Sample 2 — method: RNA Bind-n-Seq; molecule type: RNA; sample: in vitro; tested at: 200 nM; setting: whole 134-nt RNA, ends assumed; with: 150 mM LiCl; baseline: input library; direction: higher = stronger binding; all molecules: 7-deaza-guanosine replaces G
Target: Fragile X messenger ribonucleoprotein 1, C-terminal low-complexity region (Fmr1, Mus musculus, UniProt P35922)
`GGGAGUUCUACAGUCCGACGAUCGCAGGAAGUAAAAACAAAUGGAAAUGCUUCGGAUAGUGGCAGGGGUGGGGGUUGCUAAGGAAAGGGUGGGAUGGGAGUGGGUAAAAAAUUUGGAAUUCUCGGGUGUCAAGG` gave a log2 enrichment of 1.42.
For `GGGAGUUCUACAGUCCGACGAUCUCCUGUGCUACACAUCGUAUGUACCGAAUCGGGUUUUUUUGGGUUUGGGAAAAAAAGGGAAAGUAUUAUGUUACGCCGUUCGGAUCUGCAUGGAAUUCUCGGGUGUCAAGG`, the log2 enrichment was -1.29.
`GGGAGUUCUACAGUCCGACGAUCCUCAAGUCCUGUGCUACACAUCGUAUGUACCGAAUCGGGGCGGCGGGGCGGGGAAAGUAUUAUGUUACGCCGUUCGGAUCUGCACUUCCAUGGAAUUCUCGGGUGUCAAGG` has a log2 enrichment of -1.15.
The log2 enrichment of `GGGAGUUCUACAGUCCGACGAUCCAAGUCCUGUGCUACACAUCGUAUGUACCGAAUCGGGGAGGGGAAAGGGGUGGGGAAAGUAUUAUGUUACGCCGUUCGGAUCUGCACUUCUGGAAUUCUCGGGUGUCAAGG` is reported as 0.144.
With `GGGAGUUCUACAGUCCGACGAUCGCAGGAAGUAAAAACAAAUGGAAAUGCUUCGGAUAGUGGCAGGGGUGGGGGUUGCUAAGGAAAGGGCGGGAUGGGAGUGGGUAAAGAGUUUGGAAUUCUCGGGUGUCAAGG` the log2 enrichment was 1.36.
For `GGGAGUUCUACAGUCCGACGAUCCACAGACAACACGCACCCACACAGACACAGAGGGAAGGGGUUGGGAUGGGGACAGGAUGCACAGCAGGGCGGGGUAGGACCCCAGCCCCUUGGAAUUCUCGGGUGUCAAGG`, the log2 enrichment was 0.311.
For `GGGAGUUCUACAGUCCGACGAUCUGGGAGGUGGAUUUUGUUUAUUUUUUUAGCUCAUUUCCCGGGGUGGGAAUUUUUUUUUAAUAUGUGUCAUGAAUAAAGUUGUUUUUGAAAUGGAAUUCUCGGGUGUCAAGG`, the log2 enrichment was -0.129.
With `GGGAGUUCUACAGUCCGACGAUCUGGGAGGUGGAUUUUGUUUAGUUUUUUAGCUCAUUUCCAGGGGUGGGAAUUUUUUUUUAAUAUGUGUCAUGAAUAAAGUUGUUUUUGAAAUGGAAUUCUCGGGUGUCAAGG` the log2 enrichment was 0.453.
The log2 enrichment of `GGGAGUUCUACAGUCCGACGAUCUAACUUUAGAGGAGGAUCUGAUGGAUAUGGCAGUGGACGUGGAUUUGGGGAUGGCUAUAAUGGGUAUGGGGGAGGACCUGGAGGUGGCAAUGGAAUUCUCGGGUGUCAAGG` is reported as 0.402.
For `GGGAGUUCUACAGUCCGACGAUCGUCCUGUGCUACACAUCGUAUGUACCGAAUCAAAUUUUUUUAAAUUUUUAAACCCAAAAAAGUAUUAUGUUACGCCGUUCGGAUCUGCACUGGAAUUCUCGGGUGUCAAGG`, the log2 enrichment was -0.674.
`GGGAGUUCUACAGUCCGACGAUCACCAUGCAGGUGGGCAUCUUUGGGAAGUGGGGCACGGGGGGGAUAGGGAGGGGGGUAACACUUUGGGAACAGGUGGUCCCAGGUCGUUUCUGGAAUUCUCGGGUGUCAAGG` gave a log2 enrichment of 1.14.

Sample 3 — method: universal PBM; molecule type: double-stranded DNA, one strand shown; sample: in vitro; tested at: 600 nM; direction: higher = stronger binding
Target: Sal-like protein 4, full length isoform A (SALL4, Homo sapiens, UniProt Q9UJQ4, residues 1-1053)
Chain of UniProt Q9UJQ4 (whole entry, looked up): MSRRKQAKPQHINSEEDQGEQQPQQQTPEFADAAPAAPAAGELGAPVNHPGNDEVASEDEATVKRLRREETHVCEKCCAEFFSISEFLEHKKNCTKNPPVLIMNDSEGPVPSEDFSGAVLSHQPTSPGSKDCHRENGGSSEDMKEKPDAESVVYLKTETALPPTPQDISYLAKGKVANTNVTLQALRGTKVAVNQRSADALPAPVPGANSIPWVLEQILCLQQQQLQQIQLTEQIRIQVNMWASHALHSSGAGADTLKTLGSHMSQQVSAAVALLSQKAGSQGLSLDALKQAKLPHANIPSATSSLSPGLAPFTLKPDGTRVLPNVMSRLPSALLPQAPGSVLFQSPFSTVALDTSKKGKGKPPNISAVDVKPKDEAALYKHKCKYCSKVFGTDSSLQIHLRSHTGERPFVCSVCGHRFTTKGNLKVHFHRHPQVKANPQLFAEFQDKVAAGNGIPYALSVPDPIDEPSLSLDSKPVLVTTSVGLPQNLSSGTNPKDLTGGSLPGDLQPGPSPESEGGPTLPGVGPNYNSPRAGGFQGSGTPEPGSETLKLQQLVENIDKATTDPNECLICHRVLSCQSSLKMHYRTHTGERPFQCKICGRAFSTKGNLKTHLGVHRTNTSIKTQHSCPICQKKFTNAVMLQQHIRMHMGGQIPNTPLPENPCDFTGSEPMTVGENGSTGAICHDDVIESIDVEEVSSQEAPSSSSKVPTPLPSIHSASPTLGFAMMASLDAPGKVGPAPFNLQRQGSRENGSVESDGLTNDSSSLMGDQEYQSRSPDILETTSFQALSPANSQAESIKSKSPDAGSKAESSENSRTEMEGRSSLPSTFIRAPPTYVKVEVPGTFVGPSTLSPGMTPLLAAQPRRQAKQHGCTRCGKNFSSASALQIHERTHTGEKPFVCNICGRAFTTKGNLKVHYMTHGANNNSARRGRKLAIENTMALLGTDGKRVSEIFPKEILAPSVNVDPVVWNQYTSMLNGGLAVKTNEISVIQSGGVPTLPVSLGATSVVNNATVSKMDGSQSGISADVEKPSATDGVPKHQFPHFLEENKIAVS
Setting: 8-mer, flanks averaged, mean of replicates
`GCATAAGC` gave an E-score of 0.0973.
`CCAACAAC` gave an E-score of -0.189.
With `CGGAGGTA` the E-score was -0.241.
`GGGTTCGA` has an E-score of -0.248.
With `ATCGTTCG` the E-score was 0.015.
`CCGATAGG` gave an E-score of 0.00117.
`TGTACTAA` gave an E-score of 0.21.
`CGATCACC` has an E-score of -0.0474.
The E-score of `CCGGAGTC` is reported as -0.289.
The E-score of `CAGATAGC` is reported as -0.175.
With `CGGCGTAA` the E-score was -0.0122.
The E-score of `GCGCATTA` is reported as 0.0608.
With `ACAGAGGC` the E-score was -0.151.
`CAGATTGA` gave an E-score of -0.0816.
With `AGGGCATA` the E-score was 0.186.
`CATGGGAG` has an E-score of -0.0898.
`AAGCTCAT` gave an E-score of -0.0501.
With `AGAAGCCA` the E-score was -0.0459.
The E-score of `GAGTAAGA` is reported as 0.135.
`CCGTGCAG` gave an E-score of -0.203.
`CTCTGTGA` has an E-score of 0.0388.
For `CTCAGCCA`, the E-score was -0.202.
`GGACAAAC` has an E-score of -0.0805.
The E-score of `CAAAGGGG` is reported as -0.134.
With `CAATACTC` the E-score was 0.242.

Sample 4 — method: protein-binding microarray; molecule type: double-stranded DNA, one strand shown; sample: in vitro; tested at: 2200 nM top; setting: 60-bp whole probe; with: salmon DNA 0.4 mg/ml; baseline: random background probes; direction: higher = stronger binding; constant ends, left off below: GCCTAGCAC … GTCTTGATTCGCTTGACGCTGCTG
Target: Interferon regulatory factor 7, full length, phosphomimetic (IRF7, Homo sapiens, UniProt Q92985, residues 1-503, S471D/S472D/S475D/S476D/S477D/S483D/S484D/S487D)
Chain of UniProt Q92985 (whole entry, unmodified, looked up): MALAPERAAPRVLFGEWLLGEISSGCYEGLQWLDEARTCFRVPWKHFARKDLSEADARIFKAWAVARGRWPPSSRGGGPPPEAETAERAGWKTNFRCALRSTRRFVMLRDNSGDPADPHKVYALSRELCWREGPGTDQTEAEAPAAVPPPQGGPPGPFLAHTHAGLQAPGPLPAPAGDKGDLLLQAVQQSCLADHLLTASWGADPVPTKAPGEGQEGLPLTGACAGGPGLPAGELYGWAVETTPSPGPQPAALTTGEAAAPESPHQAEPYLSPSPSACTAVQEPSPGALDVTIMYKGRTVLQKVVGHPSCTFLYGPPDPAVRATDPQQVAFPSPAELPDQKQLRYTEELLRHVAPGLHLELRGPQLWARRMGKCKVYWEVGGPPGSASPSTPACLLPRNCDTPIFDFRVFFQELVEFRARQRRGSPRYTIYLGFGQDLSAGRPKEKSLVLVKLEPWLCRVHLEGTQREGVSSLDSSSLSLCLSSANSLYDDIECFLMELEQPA
`TCAAATTTTCAATTCCTACTGTGCTAG` — result for “fitted relative affinity”: 1.26 z-score.
`GACGATATCAGTTGCGAGACGTGCTAG`: “fitted relative affinity” 0.381 z-score.
`GGGCCGAGGCTGTGGCCACCGTGCTAG` — result for “fitted relative affinity”: -1.4 z-score.
For `GACGATTTCAGATCCGAGACGTGCTAG`, “fitted relative affinity” read 0.852 z-score.
Under “fitted relative affinity”, `TTAGGTCTCATTTTCCTTTAGTGCTAG` is recorded as 2.61 z-score.
Under “fitted relative affinity”, `GTTTTTTTTTAATTGAAATCGTGCTAG` is recorded as 0.853 z-score.
`TATTACCTCATCTTCCTCTGCGTGCTA`: “fitted relative affinity” 1.73 z-score.
For `TCAATTTTCTAAATTCCACTGTGCTAG`, “fitted relative affinity” read 1.71 z-score.
`TGGGACCAGCACAGACAGTCGTGCTAG` — result for “fitted relative affinity”: -1.11 z-score.
`CGCTCTGTGCTCTTTGGGCTGTGCTAG` — result for “fitted relative affinity”: 0.624 z-score.
Under “fitted relative affinity”, `TTAGGACTGCGTATCCTTTAGTGCTAG` is recorded as 0.0481 z-score.
For `TTATGGTGTGGAGAAGGCACGTGCTAG`, “fitted relative affinity” read -0.598 z-score.
For `GACGGTATCCTTATCCTGATGTGCTAG`, “fitted relative affinity” read 0.926 z-score.
`TTAGCTATCGGTCTCGGTTAGTGCTAG` — result for “fitted relative affinity”: 0.827 z-score.
`TTAGGTCTCGGTCTCGGTTGGTGCTAG` — result for “fitted relative affinity”: 0.813 z-score.
For `GACGAACTGAGACTAGAGACGTGCTAG`, “fitted relative affinity” read -0.293 z-score.

Some of these lines once more (sample 4):
`CGCTCTGTGCTCTTTGGGCTGTGCTAG` — result for “fitted relative affinity”: 0.624 z-score.
`TTAGGTCTCGGTCTCGGTTGGTGCTAG` — result for “fitted relative affinity”: 0.813 z-score.
`TATTACCTCATCTTCCTCTGCGTGCTA`: “fitted relative affinity” 1.73 z-score.
`TGGGACCAGCACAGACAGTCGTGCTAG` — result for “fitted relative affinity”: -1.11 z-score.
`GACGATATCAGTTGCGAGACGTGCTAG`: “fitted relative affinity” 0.381 z-score.
Under “fitted relative affinity”, `GTTTTTTTTTAATTGAAATCGTGCTAG` is recorded as 0.853 z-score.
